Measured values from different studies.
Compare with care: the assays were run in different laboratories. ± marks the error that the study gave.
rep R3428I 3C-like proteinase: Replicase polyprotein 1ab, 3C-like proteinase (rep, Severe acute respiratory syndrome-related coronavirus, UniProt P0C6X7, R3428I)
Replicase polyprotein 1a R3428I 3C-like proteinase: Replicase polyprotein 1a, 3C-like proteinase (Severe acute respiratory syndrome-related coronavirus, UniProt P0C6U8, R3428I)
Botulinum neurotoxin type A light chain: Botulinum neurotoxin type A, light chain (Clostridium botulinum, UniProt P0DPI0)
Ricin A chain: Ricin, A chain (Ricinus communis, UniProt P02879)
OPRL1: Nociceptin receptor (OPRL1, Homo sapiens, UniProt P41146)

Amino acid sequences for entries named in this document (tags omitted). Residues count along the entry.
UniProt P41146, whole entry: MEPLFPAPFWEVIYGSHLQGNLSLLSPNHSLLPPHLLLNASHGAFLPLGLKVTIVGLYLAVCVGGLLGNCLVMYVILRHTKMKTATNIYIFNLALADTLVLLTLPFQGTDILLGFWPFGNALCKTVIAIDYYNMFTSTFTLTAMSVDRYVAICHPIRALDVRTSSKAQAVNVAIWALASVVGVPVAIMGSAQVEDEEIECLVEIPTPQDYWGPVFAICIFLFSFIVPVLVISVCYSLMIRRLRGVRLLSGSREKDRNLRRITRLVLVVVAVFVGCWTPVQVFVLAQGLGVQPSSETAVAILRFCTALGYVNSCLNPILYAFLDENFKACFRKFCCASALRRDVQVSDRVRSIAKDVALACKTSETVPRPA
UniProt Q869C3, whole entry, looked up: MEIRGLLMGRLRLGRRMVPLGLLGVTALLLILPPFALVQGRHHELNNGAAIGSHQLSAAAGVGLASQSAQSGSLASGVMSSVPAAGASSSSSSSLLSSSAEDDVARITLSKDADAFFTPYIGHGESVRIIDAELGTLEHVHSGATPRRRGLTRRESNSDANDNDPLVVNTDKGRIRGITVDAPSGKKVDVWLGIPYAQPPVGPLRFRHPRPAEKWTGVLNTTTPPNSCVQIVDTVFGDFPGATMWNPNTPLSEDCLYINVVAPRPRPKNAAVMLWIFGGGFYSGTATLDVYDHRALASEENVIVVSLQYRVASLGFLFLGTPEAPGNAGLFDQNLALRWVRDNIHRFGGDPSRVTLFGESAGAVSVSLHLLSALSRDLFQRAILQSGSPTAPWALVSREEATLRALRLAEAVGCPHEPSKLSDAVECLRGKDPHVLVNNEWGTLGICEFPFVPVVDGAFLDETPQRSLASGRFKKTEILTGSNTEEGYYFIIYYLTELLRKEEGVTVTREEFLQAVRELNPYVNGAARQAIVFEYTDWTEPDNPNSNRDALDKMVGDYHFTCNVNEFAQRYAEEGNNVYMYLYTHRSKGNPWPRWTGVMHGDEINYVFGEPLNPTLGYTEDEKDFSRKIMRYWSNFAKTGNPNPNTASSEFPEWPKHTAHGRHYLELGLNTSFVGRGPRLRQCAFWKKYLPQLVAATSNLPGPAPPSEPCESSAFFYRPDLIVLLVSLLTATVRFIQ
UniProt P49582, 23-502 limits assumed: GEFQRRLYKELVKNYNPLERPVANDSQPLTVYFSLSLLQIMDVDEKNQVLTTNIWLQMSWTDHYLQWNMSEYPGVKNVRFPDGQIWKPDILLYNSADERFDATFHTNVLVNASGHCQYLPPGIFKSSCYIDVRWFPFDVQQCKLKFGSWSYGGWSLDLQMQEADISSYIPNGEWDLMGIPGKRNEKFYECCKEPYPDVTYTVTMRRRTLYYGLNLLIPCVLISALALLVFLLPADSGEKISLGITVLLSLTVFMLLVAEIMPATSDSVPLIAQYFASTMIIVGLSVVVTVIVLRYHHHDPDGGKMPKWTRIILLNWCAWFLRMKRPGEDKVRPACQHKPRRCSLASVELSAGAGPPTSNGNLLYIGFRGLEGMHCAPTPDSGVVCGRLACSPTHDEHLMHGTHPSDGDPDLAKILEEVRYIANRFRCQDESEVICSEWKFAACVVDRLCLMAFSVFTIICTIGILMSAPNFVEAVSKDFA
UniProt P02708, 21-457 limits assumed: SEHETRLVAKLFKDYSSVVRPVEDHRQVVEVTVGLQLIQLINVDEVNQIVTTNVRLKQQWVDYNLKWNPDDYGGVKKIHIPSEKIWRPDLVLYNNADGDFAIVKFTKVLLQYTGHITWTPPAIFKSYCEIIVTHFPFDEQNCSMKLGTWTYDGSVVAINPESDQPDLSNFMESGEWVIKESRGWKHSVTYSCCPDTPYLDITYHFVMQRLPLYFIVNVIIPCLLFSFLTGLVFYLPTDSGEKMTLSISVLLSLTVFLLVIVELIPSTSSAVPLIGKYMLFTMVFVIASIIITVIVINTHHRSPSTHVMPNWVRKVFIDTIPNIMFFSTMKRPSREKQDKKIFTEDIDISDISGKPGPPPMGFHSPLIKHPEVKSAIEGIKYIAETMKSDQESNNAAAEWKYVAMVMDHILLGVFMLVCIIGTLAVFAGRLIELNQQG
UniProt Q07001, 22-517 limits assumed: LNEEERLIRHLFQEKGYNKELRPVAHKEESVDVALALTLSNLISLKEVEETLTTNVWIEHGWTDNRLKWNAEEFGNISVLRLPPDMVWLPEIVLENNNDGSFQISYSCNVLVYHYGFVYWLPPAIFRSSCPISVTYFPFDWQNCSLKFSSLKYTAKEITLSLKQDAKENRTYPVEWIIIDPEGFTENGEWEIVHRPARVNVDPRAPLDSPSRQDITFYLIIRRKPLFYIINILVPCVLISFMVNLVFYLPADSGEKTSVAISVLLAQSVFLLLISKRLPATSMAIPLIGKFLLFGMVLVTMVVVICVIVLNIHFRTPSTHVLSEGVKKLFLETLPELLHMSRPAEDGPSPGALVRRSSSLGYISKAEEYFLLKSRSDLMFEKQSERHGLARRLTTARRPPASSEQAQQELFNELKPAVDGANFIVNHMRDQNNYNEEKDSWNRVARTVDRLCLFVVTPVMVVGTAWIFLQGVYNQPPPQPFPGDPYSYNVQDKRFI
UniProt P35372, whole entry: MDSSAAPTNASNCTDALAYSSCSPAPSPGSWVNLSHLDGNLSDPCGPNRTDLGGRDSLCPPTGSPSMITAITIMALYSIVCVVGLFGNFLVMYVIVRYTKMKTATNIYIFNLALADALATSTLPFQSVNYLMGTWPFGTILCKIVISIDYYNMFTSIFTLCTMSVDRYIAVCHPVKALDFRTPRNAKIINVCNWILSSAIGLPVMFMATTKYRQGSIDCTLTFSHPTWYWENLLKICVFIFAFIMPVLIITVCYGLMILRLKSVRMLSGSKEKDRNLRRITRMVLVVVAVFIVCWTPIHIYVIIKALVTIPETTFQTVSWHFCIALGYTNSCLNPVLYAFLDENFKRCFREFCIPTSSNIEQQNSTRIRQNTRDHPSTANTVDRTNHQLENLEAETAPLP
UniProt P04757, 26-499 limits assumed: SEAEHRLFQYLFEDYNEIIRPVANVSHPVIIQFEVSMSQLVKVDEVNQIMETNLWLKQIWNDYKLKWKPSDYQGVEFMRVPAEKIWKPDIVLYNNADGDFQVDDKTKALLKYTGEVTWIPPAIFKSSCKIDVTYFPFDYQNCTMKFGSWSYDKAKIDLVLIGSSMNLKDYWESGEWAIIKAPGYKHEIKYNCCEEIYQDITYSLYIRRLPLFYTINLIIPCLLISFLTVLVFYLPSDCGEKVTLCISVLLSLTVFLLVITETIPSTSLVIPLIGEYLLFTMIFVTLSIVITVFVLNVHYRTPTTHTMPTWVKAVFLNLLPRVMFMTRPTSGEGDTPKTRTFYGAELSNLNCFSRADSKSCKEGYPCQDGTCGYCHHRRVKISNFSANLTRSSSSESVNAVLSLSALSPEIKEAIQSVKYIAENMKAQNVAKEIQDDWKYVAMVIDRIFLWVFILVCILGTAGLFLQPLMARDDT
UniProt P04757, whole entry, looked up: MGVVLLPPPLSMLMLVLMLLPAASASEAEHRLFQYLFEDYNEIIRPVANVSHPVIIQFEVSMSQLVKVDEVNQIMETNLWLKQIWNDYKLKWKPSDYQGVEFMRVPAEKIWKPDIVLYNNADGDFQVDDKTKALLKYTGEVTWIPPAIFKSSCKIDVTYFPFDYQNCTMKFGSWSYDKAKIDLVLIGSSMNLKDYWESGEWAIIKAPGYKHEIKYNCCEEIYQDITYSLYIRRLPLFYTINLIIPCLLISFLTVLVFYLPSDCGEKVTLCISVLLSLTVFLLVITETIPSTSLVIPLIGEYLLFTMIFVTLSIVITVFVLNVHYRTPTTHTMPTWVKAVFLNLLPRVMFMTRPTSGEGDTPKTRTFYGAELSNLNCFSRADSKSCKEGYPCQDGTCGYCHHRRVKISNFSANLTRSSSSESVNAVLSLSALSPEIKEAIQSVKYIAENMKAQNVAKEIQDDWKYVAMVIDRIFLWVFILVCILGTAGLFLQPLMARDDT
UniProt P12390, 25-500 limits assumed: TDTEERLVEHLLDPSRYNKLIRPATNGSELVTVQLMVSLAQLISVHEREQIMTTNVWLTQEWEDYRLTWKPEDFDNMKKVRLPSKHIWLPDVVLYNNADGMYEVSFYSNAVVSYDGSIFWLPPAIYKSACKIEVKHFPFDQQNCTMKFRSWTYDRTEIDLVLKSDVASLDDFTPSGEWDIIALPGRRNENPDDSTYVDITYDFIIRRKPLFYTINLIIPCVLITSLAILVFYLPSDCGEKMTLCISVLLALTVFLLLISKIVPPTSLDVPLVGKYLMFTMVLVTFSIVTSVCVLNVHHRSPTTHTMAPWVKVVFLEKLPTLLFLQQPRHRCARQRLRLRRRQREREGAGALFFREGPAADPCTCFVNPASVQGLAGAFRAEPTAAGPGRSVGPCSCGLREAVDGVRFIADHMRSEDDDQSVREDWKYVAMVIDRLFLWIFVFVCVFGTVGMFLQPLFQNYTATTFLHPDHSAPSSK
UniProt P12390, whole entry, looked up: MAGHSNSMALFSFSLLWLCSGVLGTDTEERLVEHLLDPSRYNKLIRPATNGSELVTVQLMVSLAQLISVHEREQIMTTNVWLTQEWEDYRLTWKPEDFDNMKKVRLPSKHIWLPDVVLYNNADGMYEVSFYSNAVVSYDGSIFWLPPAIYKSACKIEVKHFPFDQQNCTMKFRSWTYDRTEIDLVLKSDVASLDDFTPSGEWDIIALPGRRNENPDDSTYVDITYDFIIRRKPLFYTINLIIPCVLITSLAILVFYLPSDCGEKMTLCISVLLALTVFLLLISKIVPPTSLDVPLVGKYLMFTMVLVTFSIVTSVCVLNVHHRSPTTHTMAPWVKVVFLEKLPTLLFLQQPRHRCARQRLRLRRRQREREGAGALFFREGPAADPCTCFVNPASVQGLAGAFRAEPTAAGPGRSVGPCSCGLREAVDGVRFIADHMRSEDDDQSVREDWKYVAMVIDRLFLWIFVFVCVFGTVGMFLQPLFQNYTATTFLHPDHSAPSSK
UniProt P43143, whole entry M241L/F253L/V303I/V320I/I327V/A333T/K339T, looked up: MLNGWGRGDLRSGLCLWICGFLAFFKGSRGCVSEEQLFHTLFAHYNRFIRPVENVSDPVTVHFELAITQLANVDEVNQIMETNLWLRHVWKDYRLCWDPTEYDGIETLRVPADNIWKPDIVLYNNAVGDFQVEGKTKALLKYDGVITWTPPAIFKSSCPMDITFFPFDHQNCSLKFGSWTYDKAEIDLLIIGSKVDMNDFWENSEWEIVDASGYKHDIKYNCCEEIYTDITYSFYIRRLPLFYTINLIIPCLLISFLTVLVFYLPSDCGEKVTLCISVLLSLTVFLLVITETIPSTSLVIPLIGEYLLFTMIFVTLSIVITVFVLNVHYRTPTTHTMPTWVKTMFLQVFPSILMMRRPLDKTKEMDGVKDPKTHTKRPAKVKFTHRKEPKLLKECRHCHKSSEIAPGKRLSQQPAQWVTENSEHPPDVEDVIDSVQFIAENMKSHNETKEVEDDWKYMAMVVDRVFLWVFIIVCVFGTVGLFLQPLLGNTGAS
UniProt O95931, 11-69 limits assumed: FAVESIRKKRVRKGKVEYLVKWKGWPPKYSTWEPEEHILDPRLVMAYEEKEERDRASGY
UniProt P36544, 23-502 limits assumed: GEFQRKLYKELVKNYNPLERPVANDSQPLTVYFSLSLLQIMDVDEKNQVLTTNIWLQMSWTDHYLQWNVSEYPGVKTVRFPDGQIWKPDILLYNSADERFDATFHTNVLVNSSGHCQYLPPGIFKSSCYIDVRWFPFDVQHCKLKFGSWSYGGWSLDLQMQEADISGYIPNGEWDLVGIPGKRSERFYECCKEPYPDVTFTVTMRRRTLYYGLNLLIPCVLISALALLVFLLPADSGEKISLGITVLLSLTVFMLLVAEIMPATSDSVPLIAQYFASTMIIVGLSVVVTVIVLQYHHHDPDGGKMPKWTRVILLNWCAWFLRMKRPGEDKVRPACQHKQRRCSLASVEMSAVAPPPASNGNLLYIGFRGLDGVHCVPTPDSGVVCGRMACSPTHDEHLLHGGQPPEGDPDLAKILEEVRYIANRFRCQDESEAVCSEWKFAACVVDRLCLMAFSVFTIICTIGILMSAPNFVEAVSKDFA
UniProt P09483, 31-630 limits assumed: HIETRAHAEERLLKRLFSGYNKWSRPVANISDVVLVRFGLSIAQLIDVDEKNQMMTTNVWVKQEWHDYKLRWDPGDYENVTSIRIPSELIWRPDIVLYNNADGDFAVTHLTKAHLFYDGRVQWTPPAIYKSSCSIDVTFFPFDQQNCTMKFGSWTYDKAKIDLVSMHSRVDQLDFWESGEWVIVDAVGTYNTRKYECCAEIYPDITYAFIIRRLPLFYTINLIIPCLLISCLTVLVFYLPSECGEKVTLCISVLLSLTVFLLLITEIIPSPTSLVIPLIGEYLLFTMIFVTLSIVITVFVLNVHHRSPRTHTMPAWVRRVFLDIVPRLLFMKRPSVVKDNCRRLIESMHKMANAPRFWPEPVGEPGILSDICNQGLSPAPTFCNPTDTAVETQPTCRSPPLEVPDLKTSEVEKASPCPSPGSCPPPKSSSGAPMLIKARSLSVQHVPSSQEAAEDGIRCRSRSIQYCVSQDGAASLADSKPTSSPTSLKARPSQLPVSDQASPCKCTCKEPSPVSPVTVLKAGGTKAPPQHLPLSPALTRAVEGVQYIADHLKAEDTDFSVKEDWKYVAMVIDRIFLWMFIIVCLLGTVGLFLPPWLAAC

`CCOP(=O)(OCC)Oc1ccc([N+](=O)[O-])cc1` has an IC50 of 0.0836 µM (Ace (Anopheles gambiae, UniProt Q869C3); enzyme activity, inhibitor, Ellman; 10 min, room temperature, added: acetylthiocholine).
`O=S1(=O)c2ccc(F)cc2-c2ccc(N3CCN4CCC3CC4)cc21` [fluorine-18 labelled] — result for “binding potential BPND”: 2 ± 0.3 (Chrna7 (Mus musculus, UniProt P49582); mouse, cortex; dose not given, 90 min, unit not given; reference: cerebellum).
With `O=C(/C=C/c1ccccc1)N[C@@H](CO)C(=O)NC1CCCCC1` the IC50 was 1500 µM (rep R3428I 3C-like proteinase; enzyme activity, inhibitor, HPLC substrate depletion; pH 4.0).
For `COc1cccc(/C=C/C(=O)O[C@@H](C(=O)NC2CCCCC2)[C@@H](NC(=O)/C=C/c2ccccc2)c2ccccc2)c1`, the IC50 was 65 µM (Replicase polyprotein 1a R3428I 3C-like proteinase; enzyme activity, inhibitor; pH 4.0).
`CC[C@H](CC[C@@H](C)[C@H]1CC[C@H]2[C@@H]3CC=C4C[C@@H](O)CC[C@]4(C)[C@H]3CC[C@]12C)C(C)C` gave an IC50 of 115 µM (Replicase polyprotein 1ab, 3C-like proteinase (rep, Severe acute respiratory syndrome-related coronavirus, UniProt P0C6X7); 3CLpro cleavage, inhibitor, ELISA; 3 h).
With `O=C1NN(c2ccccc2)C(=O)/C1=C\c1ccc(-c2cc([N+](=O)[O-])ccc2O)o1` the IC50 was 8 ± 3 µM (Botulinum neurotoxin type A light chain; inhibitor, FRET, SNAPtide substrate; no reducing agent).
`CC(C)C[C@H](NC(=O)[C@@H](NC(=O)COc1ccc(C(=O)O)cc1)C(C)C)C(=O)N[C@@H](C[C@@H]1CCNC1=O)C(=O)c1nc2ccccc2s1` gave an IC50 of 1.7 µM (rep R3428I 3C-like proteinase; enzyme activity, inhibitor, HPLC; 60 min, 37 °C, added: substrate 111 µM).
`Nc1nc2nc(C(=O)NCc3ccccn3)cnc2c(=O)[nH]1` has an IC50 of 500 µM (Ricin A chain; recovery of translation, inhibitor, in vitro luciferase translation; rabbit reticulocyte lysate).
The IC50 of `CC(C)[C@@H]1NC(=O)[C@@H]2CCCN2C(=O)[C@H](Cc2c[nH]cn2)NC(=O)[C@H](CO)NC(=O)[C@@H]2CSSC[C@@H](C(=O)NCC(N)=O)NC(=O)[C@H](CC(N)=O)NC(=O)[C@@H]3CCCN3C(=O)[C@H](CC(N)=O)NC(=O)[C@H](CCCCN)NC(=O)[C@H]([C@@H](C)O)NC(=O)[C@H](Cc3ccc(O)cc3)NC(=O)[C@H](CSSC[C@H](NC(=O)CNC(=O)CN)C(=O)N2)NC1=O` is reported as greater than 10 µM (Nicotinic acetylcholine receptor alpha-1/beta-1/delta/epsilon (Homo sapiens, UniProt P02708+P11230+Q04844+Q07001); ion current, antagonist, two-electrode voltage clamp; Xenopus laevis oocytes; holding -70 mV, added: 10 µM acetylcholine).
For `COc1ccc(/C=C/C(=O)N[C@@H](COC(=O)c2ccccc2)C(=O)NC2CCCCC2)cc1`, the IC50 was 240 µM (rep R3428I 3C-like proteinase; enzyme activity, inhibitor, HPLC substrate depletion; pH 4.0).
`C=C(CO)[C@@H]1CCC(C)=C[C@H]1c1c(OC(C)=O)cc(CCCCC)cc1OC(C)=O` gave an IC50 of 1.17 µM (OPRM1 (Homo sapiens, UniProt P35372); cAMP level, antagonist; HEK293 expressing human µ-opioid receptor; added: fentanyl 500 pM (EC95)).
The EC50 of `NC12CC3CC(CC(C3)C1)C2` is reported as less than 1 µM (Influenza A virus; viral replication, plaque size reduction; MDCK, A/Swine/Iowa/11-0918/2010 (H1N1)).
The IC50 of `CC[C@H](C)[C@@H]1NC(=O)[C@H](CO)NC(=O)[C@@H]2CSSC[C@H](NC(=O)CN)C(=O)N[C@@H](CSSC[C@@H](C(N)=O)NC(=O)[C@H](CC(C)C)NC(=O)[C@H](CCC(=O)O)NC(=O)[C@@H]3CCCN3C(=O)[C@H](Cc3c[nH]cn3)NC(=O)[C@H](CC(N)=O)NC1=O)C(=O)N[C@@H](CO)C(=O)N[C@@H](Cc1c[nH]cn1)C(=O)N1CCC[C@H]1C(=O)N[C@@H](C)C(=O)N2` is reported as 0.0118 µM (Neuronal acetylcholine receptor; alpha3/beta2 (Rattus norvegicus, UniProt P04757+P12390); ion current, antagonist, two-electrode voltage clamp; Xenopus laevis oocytes; added: 100 µM acetylcholine).
For `O=C(O)C1CN(Cc2ccc(CO)cc2)Cc2ccccc21` (stereo not shown), the IC50 was 4.5 to 5.7 µM (Replicase polyprotein 1ab, nsp13 helicase (rep, Severe acute respiratory syndrome coronavirus 2, UniProt P0DTD1); inhibitor).
For `CSCC[C@H](NC(=O)[C@H](CC(=O)O)NC(=O)[C@H](CC(=O)O)NC(=O)[C@H](CC(=O)O)NC(=O)[C@@H](N)CO)C(=O)NCC(=O)N[C@@H](Cc1ccccc1)C(=O)NCC(=O)N[C@@H](CC(C)C)C(=O)N[C@@H](Cc1ccccc1)C(=O)N[C@@H](CC(=O)O)C(=O)O`, the IC50 was 30 ± 4 µM (Shiga-like toxin 2 subunit A, A1 fragment (UniProt P09385); ribosome depurination; yeast ribosomes; pH 7.4).
`CC(C)C[C@@H]1NC(=O)[C@H](CCC(=O)O)NC(=O)[C@@H]2CCCN2C(=O)[C@H](Cc2c[nH]cn2)NC(=O)[C@H](CC(N)=O)NC(=O)[C@H](C(C)C)NC(=O)[C@H](Cc2ccc(O)cc2)NC(=O)[C@@H]2CSSC[C@H](NC(=O)CN)C(=O)N[C@@H](CSSC[C@@H](C(N)=O)NC1=O)C(=O)N[C@@H](CO)C(=O)N[C@@H](Cc1c[nH]cn1)C(=O)N1CCC[C@H]1C(=O)N[C@@H](C)C(=O)N2` gave an IC50 of 0.013 µM (Chrna3/Chrnb2/Chrna6, with beta3 subunit (Rattus norvegicus, UniProt P04757+P12390+P43143); ion current, antagonist, two-electrode voltage clamp; Xenopus laevis oocytes; added: 100 µM acetylcholine).
The Ki of `CCC1C(=O)N(C2CCN(CCCc3ccccc3)CC2)c2ccccc21` (stereo not shown) is reported as 0.189 ± 0.043 µM (OPRL1; radioligand displacement; added: [3H]N/OFQ).
`O=C(/C=C/c1ccc(OC(=O)c2ccccc2)cc1)N[C@H](COC(=O)c1ccccc1)C(=O)NC1CCCCC1` has an IC50 of 68 µM (rep R3428I 3C-like proteinase; enzyme activity, inhibitor, HPLC substrate depletion; pH 4.0).
`O=C(O)c1cc(-c2ccc(-c3c(-c4ccc5c(c4)OCO5)noc3-c3ccsc3)cc2)nc2ccccc12` has an IC50 of greater than 200 µM (Botulinum neurotoxin type A light chain; inhibitor, FRET, SNAPtide substrate; no reducing agent).
With `COc1cccc(C(=O)N2CCN(C(=O)COc3cccc(C)c3)CC2)c1OC` the Ki was 55.3 µM (Chromobox protein homolog 7 (Homo sapiens, UniProt O95931); H3K9me3 peptide binding, inhibitor, fluorescence anisotropy).
For `O=C(/C=C/c1ccccc1)N[C@H](COC(=O)c1ccccc1)C(=O)N1CCCCC1`, the IC50 was greater than 1600 µM (rep R3428I 3C-like proteinase; enzyme activity, inhibitor, HPLC substrate depletion; pH 4.0).
With `C[C@@H]1NC(=O)[C@H](CCCNC(=N)N)NC(=O)[C@H](CCCNC(=N)N)NC(=O)[C@H](Cc2c[nH]cn2)NC(=O)[C@H](CO)NC(=O)[C@H](CCCCN)NC(=O)[C@@H]2CSSC[C@H](NC(=O)CN)C(=O)N[C@@H](CSSC[C@@H](C(N)=O)NC(=O)[C@H](CCCNC(=N)N)NC1=O)C(=O)N[C@@H](CO)C(=O)N[C@@H](Cc1c[nH]cn1)C(=O)N1CCC[C@H]1C(=O)N[C@@H](C)C(=O)N2` the IC50 was 1.89 µM (CHRNA7 (Homo sapiens, UniProt P36544); ion current, antagonist, two-electrode voltage clamp; Xenopus oocytes; holding -70 mV, added: 100 µM acetylcholine).
With `CNC(=O)c1cnc2c(=O)[nH]c(N)nc2n1` the IC50 was 1600 µM (Ricin A chain; recovery of translation, inhibitor, in vitro luciferase translation; rabbit reticulocyte lysate).
`CCCCCCCCCCCCCCCC[N+](C)(C)CCN(Cc1ccc(OC)cc1)c1ncccn1` has an IC50 of 9.6 µM (Replicase polyprotein 1ab, main protease (rep, Middle East respiratory syndrome-related coronavirus, UniProt K9N7C7); enzyme activity, inhibitor, FRET; MERS-CoV; added: 40 µM substrate).
With `O=C(CCc1ccc(O)cc1)N[C@@H](COC(=O)c1ccccc1)C(=O)NC1CCCCC1` the IC50 was greater than 3200 µM (rep R3428I 3C-like proteinase; enzyme activity, inhibitor, HPLC substrate depletion; pH 4.0).
The Ki of `O=C1Cc2ccccc2N1C1CCN([C@H]2CC[C@@H]3CCCc4cccc2c43)CC1` (relative stereo) is reported as 0.0021 ± 0.00014 µM (OPRL1; radioligand displacement; added: [3H]N/OFQ).
`CC(C)C[C@@H](NC(=O)[C@@H](NC(=O)OCc1ccccc1)C(C)C)C(=O)N[C@@H](C[C@@H]1CCNC1=O)C(=O)c1nc2ccccc2s1` has an IC50 of greater than 1600 µM (rep R3428I 3C-like proteinase; enzyme activity, inhibitor, HPLC; 60 min, 37 °C, added: substrate 111 µM).
`CC[C@H](C)[C@@H]1NC(=O)[C@H](CCC(=O)O)NC(=O)[C@@H]2CCCN2C(=O)[C@H](Cc2c[nH]cn2)NC(=O)[C@H](CCCCC(=O)O)NC(=O)[C@H](CC(C)C)NC(=O)[C@H](Cc2c[nH]cn2)NC(=O)[C@@H]2CSSC[C@H](NC(=O)CN)C(=O)N[C@@H](CSSC[C@@H](C(N)=O)NC1=O)C(=O)N[C@@H](CO)C(=O)N[C@@H](Cc1c[nH]cn1)C(=O)N1CCC[C@H]1C(=O)N[C@@H](C)C(=O)N2` has an IC50 of 0.572 µM (Neuronal acetylcholine receptor; alpha4/beta2 (Rattus norvegicus, UniProt P09483+P12390); ACh-evoked current, antagonist, two-electrode voltage clamp; Xenopus laevis oocytes; added: ACh 100 µM).
`COc1c(-c2coc3cc4c(cc3c2=O)CC(O)C(C)(C)O4)ccc2c1C=CC(C)(C)O2` (stereo not shown) gave an IC50 of 0.407 µM (Replicase polyprotein 1ab, main protease (rep, Severe acute respiratory syndrome coronavirus 2, UniProt P0DTD1); luciferase reporter, inhibitor; SARS-CoV-2; 48 h).
`COc1cc(/C=C/C(=O)N[C@@H](COC(=O)c2ccccc2)C(=O)NC2CCCCC2)cc(OC)c1` gave an IC50 of 100 µM (rep R3428I 3C-like proteinase; enzyme activity, inhibitor, HPLC substrate depletion; pH 4.0).
`CC1=Nc2ccccc2/C1=C/c1sc(=S)n(-c2cccc(C(=O)O)c2)c1O` gave an IC50 of 50 ± 20 µM (Botulinum neurotoxin type A light chain; inhibitor, FRET, SNAPtide substrate; no reducing agent).
The IC50 of `O=C(/C=C/c1ccccc1)N[C@@H](c1ccccc1)[C@@H](OC(=O)/C=C/c1ccccc1)C(=O)NC1CCCCC1` is reported as 85 µM (Replicase polyprotein 1a R3428I 3C-like proteinase; enzyme activity, inhibitor; pH 4.0).
`CC(C)C[C@H](NC(=O)[C@@H](NC(=O)OCc1ccc([N+](=O)[O-])cc1)C(C)C)C(=O)N[C@@H](C[C@@H]1CCNC1=O)C(=O)c1nccs1` has an IC50 of 36 µM (rep R3428I 3C-like proteinase; enzyme activity, inhibitor, HPLC; 60 min, 37 °C, added: substrate 111 µM).
`COc1cc(/C=C/C(=O)N[C@@H](COC(=O)c2ccccc2)C(=O)NC2CCCCC2)cc(OC)c1OC` has an IC50 of 74 µM (rep R3428I 3C-like proteinase; enzyme activity, inhibitor, HPLC substrate depletion; pH 4.0).

A few entries again:
`CC[C@H](C)[C@@H]1NC(=O)[C@H](CCC(=O)O)NC(=O)[C@@H]2CCCN2C(=O)[C@H](Cc2c[nH]cn2)NC(=O)[C@H](CCCCC(=O)O)NC(=O)[C@H](CC(C)C)NC(=O)[C@H](Cc2c[nH]cn2)NC(=O)[C@@H]2CSSC[C@H](NC(=O)CN)C(=O)N[C@@H](CSSC[C@@H](C(N)=O)NC1=O)C(=O)N[C@@H](CO)C(=O)N[C@@H](Cc1c[nH]cn1)C(=O)N1CCC[C@H]1C(=O)N[C@@H](C)C(=O)N2` has an IC50 of 0.572 µM (Neuronal acetylcholine receptor; alpha4/beta2 (Rattus norvegicus, UniProt P09483+P12390); ACh-evoked current, antagonist, two-electrode voltage clamp; Xenopus laevis oocytes; added: ACh 100 µM).
`COc1c(-c2coc3cc4c(cc3c2=O)CC(O)C(C)(C)O4)ccc2c1C=CC(C)(C)O2` (stereo not shown) gave an IC50 of 0.407 µM (Replicase polyprotein 1ab, main protease (rep, Severe acute respiratory syndrome coronavirus 2, UniProt P0DTD1); luciferase reporter, inhibitor; SARS-CoV-2; 48 h).
